Published values gathered from unrelated publications.
Protocols differ between the studies behind these lines. ± marks the error that the study gave.

SMILES | cell line | test | conditions | IC50
Nc1nnc(-c2ccccc2O)cc1N1CC2CCC(C1)N2c1ccnc(C#CCCN2CCCCCC2)c1 | HCC515 | cell growth or viability, ATP luminescence | 7 days | 0.0421 µM
C=CC(=O)N1CCC[C@@H](c2ccc(C(N)=O)c3[nH]ccc23)C1 | TMD8 compound-resistant | cell viability, CellTiter-Glo | 4 days, 48 h drug withdrawal | > 10 µM
Oc1cccc2c1[nH]c1c(C3=CC4(O)CCC=CCCCCN5CCC3C3(CC6C=CCCCCN6C43)C5)nccc12 (single isomer, unassigned; (+)) | SK-MEL | cell growth or viability, neutral red | 48 h | 0.47 µg/mL
CNS(=O)(=O)Nc1nccc(Cc2c(C)c3ccc(Oc4ncccc4F)cc3oc2=O)c1F | RERF-LC-A1 | cell viability, CellTiter-Glo | 7 days | > 1 µM
O=C(Nc1ccc(F)c(C(=O)Nc2ccc3[nH]ncc3c2)c1)Nc1cc(C(F)(F)F)ccc1F | KM12-Luc (TPM3-NTRK1) | cell growth, CellTiter-Glo | 72 h | 19.2 ± 2.66 µM
O=C(Nc1cc(-c2ccnc3[nH]ccc23)c(Cl)cn1)[C@H]1CCC[C@@H](NC(=O)C(F)(F)F)C1 | Z-138, BTK inhibitor-resistant | cell viability | 72 h | 0.0655 µM
CCNC(=S)NN=Cc1c2ccccc2cc2ccccc12.Cc1ccc(C(C)C)cc1.[Cl-].[Cl-].[Ru+2] | CCD-18Co | cytotoxicity, MTS | 48 h | 271 ± 8 µM
Nc1nc2cnc(C(=O)N3CCOC[C@@H]3c3ccc(C(F)(F)F)cc3)cc2c2c1COC2 | BXPC-3 | cell growth |  | 0.218 µM
C=CCOc1c(C)c(OC)c(C(=O)/C=C/c2ccccc2)c(OCC=C)c1C | KKU-M213 | cell growth or viability, SRB | 72 h | > 50 µM
COc1ccc(CNc2ccc3c(c2)S(=O)(=O)C=C3)cc1 | glioblastoma cell lines | resazurin | 24 h, approximate value | ~2 µM
CSCCCN1C(=O)C2=Nc3ccccc3CN2C1=S | CEM/ADR5000 (P-gp overexpressing, multidrug-resistant) | cell viability, resazurin | 72 h | inactive
CCCCC(=O)Nc1ccc(-c2ccc3ncn(CCC)c(=O)c3c2)cn1 | HCC827, scrambled shRNA control | cell viability, CCK-8 | 72 h | 0.047 ± 0.006 µM
CCCCCCCC(=O)Oc1c(C)c(OC)c2c(/C=C/c3ccccc3)c(CCCCCC)c(=O)oc2c1C | KKU-M213 | cell growth or viability, SRB | 72 h | > 50 µM
NC(=O)c1ccc(-c2ccccc2Cl)c2c3c([nH]c12)CCC(N)C3 (stereo not shown) | BXPC-3 | cell growth or viability | 96 h | 0.0316 µM
CO[C@@H]1[C@@H](OC(=O)c2ccc(C)[nH]2)[C@@H](O)[C@H](Oc2ccc3c(O)c(NC(=O)c4c[nH]c(C(=O)Nc5c(O)c6ccc(O[C@@H]7OC(C)(C)[C@H](OC)[C@@H](OC(=O)c8ccc(C)[nH]8)[C@H]7O)c(C)c6oc5=O)c4C)c(=O)oc3c2C)OC1(C)C | K-Ras-driven tumour cell lines | viability |  | 1 to 4 µM
CC(C)Cc1ccc(C(C)C(=O)[O][Pt]([NH2])([NH2])([Cl])([Cl])[O]C(=O)CCCc2ccccc2)cc1 (stereo not shown) | LoVo oxaliplatin-resistant | cytotoxicity, MTT | 72 h | > 3.12 µM
O=C(Nc1ccc(C(=O)Nc2ccc3[nH]nc(-c4ccncc4)c3c2)c(C(F)(F)F)c1)Nc1cc(C(F)(F)F)ccc1F | KM12-Luc (TPM3-NTRK1) | cell growth, CellTiter-Glo | 72 h | > 50 µM

SMILES | cell line | test | conditions | IC50
[BH3-][P@+]1(c2ccccc2)CC[C@H](O)CC1 | SW480 | cell growth or viability, MTT | 72 h | > 100 µM
Cc1ccccc1Nc1c(C2CN(C(=O)OC(C)(C)C)C2)nc2c(Br)c(F)ccn12 | 786-O |  |  | 20.7 µM
COc1cc(NC(=O)Nc2cc(C(F)(F)F)ccc2F)ccc1C(=O)Nc1ccc2[nH]ncc2c1 | KM12-Luc (TPM3-NTRK1) | cell growth, CellTiter-Glo | 72 h | > 50 µM
O=C(NCc1cc(F)cc(F)c1)[C@@]1(O)CCN(c2ccc3[nH]ccc3c2)C1=O | LXFL 529 | colony formation |  | > 10 µM
CCCCCC(=O)Oc1c(C)c(OC)c2c(/C=C/c3ccccc3)c(CCCC)c(=O)oc2c1C | KKU-M213 | cell growth or viability, SRB | 72 h | > 50 µM
O=C(Nc1cc(C(=O)Nc2ccc3[nH]ncc3c2)ccc1F)Nc1cc(C(F)(F)F)ccc1F | KM12-Luc (TPM3-NTRK1) | cell growth, CellTiter-Glo | 72 h | 28.8 ± 4.73 µM
O=C1CCP(=O)(c2ccccc2)CC1 | SW480 | cell growth or viability, MTT | 72 h | > 100 µM
Cc1cc(NC(=O)Nc2cc(C(F)(F)F)ccc2F)ccc1C(=O)Nc1ccc2[nH]ncc2c1 | KM12-Luc (TPM3-NTRK1) | cell growth, CellTiter-Glo | 72 h | > 50 µM
CCCCCCCCCC(=O)Oc1c(C)c(OC)c2c(/C=C/c3ccccc3)c(CCCCCCCC)c(=O)oc2c1C | KKU-M213 | cell growth or viability, SRB | 72 h | > 50 µM
Cn1ncc(-c2ccc3c(=O)[nH]nc(CN)c3c2)c1-c1c(F)c(Cl)cc(OC2CC2)c1C#N | A-172 | cell viability, inhibitor, CellTiter-Glo | 120 h | 0.02 µM
CCCC(CCC)C(=O)[O][Pt]([NH2])([NH2])([Cl])([Cl])[O]C(=O)C(Cl)Cl | LoVo oxaliplatin-resistant | cytotoxicity, MTT | 72 h | 1.14 ± 0.01 µM
CC(C)c1ccc(N(C)c2ccc3c(c2)OCC[C@H]3CNc2cnccc2C(=O)O)cc1 | RPMI-7951 | cell growth or viability, ATP luminescence | 7 days | ≥ 10 µM
CSc1sc2c3ccccc3c3ccccc3[n+]2c1C(=O)c1ccccc1 | NCI-H1299 (p53 null) | cell viability, MTT | 72 h | > 50 µM
Cc1ccc([N+](=O)[O-])cc1S(=O)(=O)N(C)/N=C/c1cnc2ccc(Br)cn12 | SNB-75 | MTS | NCI60 panel | 0.435 µM
CCCCCCCCCCCC(=O)Oc1c(C)c(OC)c2c(c1C)OC(=O)[C@@H](CCCCCCCCCC)[C@]2(O)/C=C/c1ccccc1 (relative stereo) | SH-SY5Y | cell growth or viability, SRB | 72 h | > 50 µM
CCOc1cncc(-c2ccc(NC(=O)C3(c4ccnc(NS(=O)(=O)C5CC5)n4)CCOCC3)nc2)n1 | human Breast cancer | cell proliferation, inhibitor, CellTiter-Glo viability | 72 h, 0.1% DMSO | 10 µM
C=CC(=O)N1CCCC(n2c(=O)c3ncccc3n(Cc3ccc(Oc4ccccc4)cc3)c2=O)C1 (stereo not shown) | SU-DHL10 | cell growth or viability, MTT | 72 h | 0.3 µM
